Measured values pooled from the literature.
A part holds a random share of what one study measured.
Sequence of UniProt Q9Y2I7 (whole entry, looked up): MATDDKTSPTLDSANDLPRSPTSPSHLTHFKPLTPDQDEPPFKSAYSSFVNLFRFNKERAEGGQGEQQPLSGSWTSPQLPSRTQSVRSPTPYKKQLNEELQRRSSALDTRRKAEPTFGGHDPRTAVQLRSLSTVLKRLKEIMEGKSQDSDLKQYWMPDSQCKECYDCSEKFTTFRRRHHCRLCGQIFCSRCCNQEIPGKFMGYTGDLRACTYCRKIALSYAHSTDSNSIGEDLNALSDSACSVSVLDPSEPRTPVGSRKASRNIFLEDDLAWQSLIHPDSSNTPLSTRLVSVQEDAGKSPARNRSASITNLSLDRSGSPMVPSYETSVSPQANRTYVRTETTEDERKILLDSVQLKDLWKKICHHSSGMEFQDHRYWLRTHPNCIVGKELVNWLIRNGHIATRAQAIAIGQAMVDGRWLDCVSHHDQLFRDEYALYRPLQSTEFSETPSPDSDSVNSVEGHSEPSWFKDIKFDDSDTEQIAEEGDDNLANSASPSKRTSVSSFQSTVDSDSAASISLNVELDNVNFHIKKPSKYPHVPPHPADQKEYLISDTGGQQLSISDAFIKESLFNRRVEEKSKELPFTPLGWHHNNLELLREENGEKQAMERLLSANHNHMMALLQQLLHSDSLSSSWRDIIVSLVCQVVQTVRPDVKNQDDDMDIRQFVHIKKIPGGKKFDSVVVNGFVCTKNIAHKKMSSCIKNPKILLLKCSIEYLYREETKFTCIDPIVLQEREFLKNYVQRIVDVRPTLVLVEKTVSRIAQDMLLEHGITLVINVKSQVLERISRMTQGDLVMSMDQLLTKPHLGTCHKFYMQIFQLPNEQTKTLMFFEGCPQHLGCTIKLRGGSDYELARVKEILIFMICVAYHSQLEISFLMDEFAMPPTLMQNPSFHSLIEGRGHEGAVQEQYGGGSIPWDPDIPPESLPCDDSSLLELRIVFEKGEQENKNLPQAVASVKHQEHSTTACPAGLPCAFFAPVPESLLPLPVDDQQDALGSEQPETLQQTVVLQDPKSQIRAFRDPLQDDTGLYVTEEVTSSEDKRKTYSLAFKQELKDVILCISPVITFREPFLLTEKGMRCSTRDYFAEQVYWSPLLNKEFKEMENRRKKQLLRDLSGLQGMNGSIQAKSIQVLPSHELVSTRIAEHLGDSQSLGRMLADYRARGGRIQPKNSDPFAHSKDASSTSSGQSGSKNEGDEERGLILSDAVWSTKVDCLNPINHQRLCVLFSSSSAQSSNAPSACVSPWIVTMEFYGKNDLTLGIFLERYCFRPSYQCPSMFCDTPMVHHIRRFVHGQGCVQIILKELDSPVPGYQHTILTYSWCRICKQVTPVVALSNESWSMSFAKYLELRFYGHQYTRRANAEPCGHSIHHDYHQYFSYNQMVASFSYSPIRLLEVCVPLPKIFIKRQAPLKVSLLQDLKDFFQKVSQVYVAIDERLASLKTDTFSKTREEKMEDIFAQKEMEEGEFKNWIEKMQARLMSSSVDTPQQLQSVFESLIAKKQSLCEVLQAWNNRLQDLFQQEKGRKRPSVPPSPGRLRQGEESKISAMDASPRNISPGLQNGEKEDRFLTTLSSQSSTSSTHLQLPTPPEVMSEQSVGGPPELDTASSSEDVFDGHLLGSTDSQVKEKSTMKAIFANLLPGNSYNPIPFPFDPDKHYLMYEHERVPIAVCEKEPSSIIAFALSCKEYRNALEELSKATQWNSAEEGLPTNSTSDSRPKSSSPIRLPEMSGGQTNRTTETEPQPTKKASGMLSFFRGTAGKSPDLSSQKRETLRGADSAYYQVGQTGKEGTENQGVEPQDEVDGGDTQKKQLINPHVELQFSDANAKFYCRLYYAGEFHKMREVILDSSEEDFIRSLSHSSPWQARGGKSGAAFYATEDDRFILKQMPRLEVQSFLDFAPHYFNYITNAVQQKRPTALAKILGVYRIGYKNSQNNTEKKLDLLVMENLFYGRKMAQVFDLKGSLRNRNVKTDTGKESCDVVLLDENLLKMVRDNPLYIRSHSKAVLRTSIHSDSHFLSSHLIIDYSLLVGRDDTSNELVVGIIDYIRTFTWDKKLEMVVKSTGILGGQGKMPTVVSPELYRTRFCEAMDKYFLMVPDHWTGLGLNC
Sequence of UniProt P42684 (whole entry, looked up): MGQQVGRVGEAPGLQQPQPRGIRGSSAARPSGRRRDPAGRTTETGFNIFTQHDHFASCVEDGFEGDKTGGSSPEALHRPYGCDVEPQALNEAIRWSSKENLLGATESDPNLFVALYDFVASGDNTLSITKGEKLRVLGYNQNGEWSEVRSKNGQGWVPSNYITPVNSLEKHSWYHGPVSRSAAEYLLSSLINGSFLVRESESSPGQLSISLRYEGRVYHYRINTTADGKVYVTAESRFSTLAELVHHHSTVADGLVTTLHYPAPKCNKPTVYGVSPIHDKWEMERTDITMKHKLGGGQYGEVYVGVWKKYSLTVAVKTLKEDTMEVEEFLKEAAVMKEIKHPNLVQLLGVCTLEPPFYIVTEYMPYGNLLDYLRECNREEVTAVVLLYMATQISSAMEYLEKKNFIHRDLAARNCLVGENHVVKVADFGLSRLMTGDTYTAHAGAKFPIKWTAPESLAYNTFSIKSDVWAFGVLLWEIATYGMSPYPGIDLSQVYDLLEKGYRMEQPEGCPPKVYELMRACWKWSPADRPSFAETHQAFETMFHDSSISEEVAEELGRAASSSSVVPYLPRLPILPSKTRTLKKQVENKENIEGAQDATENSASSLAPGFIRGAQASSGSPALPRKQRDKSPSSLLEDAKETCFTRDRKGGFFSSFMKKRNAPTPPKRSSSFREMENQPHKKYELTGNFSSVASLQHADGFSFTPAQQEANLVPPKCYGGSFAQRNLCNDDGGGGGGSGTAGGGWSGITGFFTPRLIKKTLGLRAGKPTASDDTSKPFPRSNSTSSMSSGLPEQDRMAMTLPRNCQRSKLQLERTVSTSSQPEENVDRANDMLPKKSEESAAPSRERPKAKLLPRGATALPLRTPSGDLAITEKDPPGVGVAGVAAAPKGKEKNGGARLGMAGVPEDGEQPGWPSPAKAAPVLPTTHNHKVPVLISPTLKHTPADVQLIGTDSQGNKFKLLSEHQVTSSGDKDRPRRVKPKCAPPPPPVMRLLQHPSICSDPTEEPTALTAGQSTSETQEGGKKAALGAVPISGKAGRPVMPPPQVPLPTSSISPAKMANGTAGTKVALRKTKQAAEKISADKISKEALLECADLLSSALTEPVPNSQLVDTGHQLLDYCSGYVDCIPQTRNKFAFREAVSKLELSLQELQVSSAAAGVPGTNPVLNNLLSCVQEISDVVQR
Sequence of UniProt Q8IY84 (whole entry, looked up): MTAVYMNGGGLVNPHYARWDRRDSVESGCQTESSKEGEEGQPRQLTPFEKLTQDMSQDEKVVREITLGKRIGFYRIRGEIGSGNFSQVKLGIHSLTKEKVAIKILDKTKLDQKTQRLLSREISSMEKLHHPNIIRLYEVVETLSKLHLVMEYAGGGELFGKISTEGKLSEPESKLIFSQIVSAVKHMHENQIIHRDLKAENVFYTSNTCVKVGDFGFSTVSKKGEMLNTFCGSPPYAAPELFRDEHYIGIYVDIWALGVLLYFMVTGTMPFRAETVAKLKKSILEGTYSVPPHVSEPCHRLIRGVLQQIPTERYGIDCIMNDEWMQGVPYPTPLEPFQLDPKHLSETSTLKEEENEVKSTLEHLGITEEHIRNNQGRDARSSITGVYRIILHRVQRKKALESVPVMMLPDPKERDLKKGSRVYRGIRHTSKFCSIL

Block 1 — read-out: cell-free assay; method: competition with immobilised ligand; concentration: 1 µM
SMILES: CCCCN(CCCC)C(=O)CN1C[C@@H](c2cc(OC)c3c(c2)OCO3)[C@H](C(=O)O)[C@H]1CC(C)(C)CCC
target | remaining binding [%]
ABL2 (Homo sapiens, UniProt P42684) | 100
PIK3CA (Homo sapiens, UniProt P42336, M1043I) | 100
PIKFYVE (Homo sapiens, UniProt Q9Y2I7) | 81.4
KIT (Homo sapiens, UniProt P10721, V559D) | 100
PTK2B (Homo sapiens, UniProt Q14289) | 93.4
PRKD1 (Homo sapiens, UniProt Q15139) | 100
Ribosomal protein S6 kinase alpha-1, C-terminal kinase domain (RPS6KA1, Homo sapiens, UniProt Q15418) | 75.7
NIM1K (Homo sapiens, UniProt Q8IY84) | 100
SGK2 (Homo sapiens, UniProt Q9HBY8) | 78.5
MAP3K4 (Homo sapiens, UniProt Q9Y6R4) | 85.5

Block 2 — method: RNA Bind-n-Seq; molecule type: RNA; medium: in vitro; concentration: not given; reference: input RNA pool; direction: higher = stronger binding
Target: RING finger protein unkempt homolog, zinc fingers 1-6, GST-SBP tag (UNK, Homo sapiens, UniProt Q9C0B0, residues 30-357)
Setting: RNA with constant flanks, human and mouse sites, ends assumed
Shared flanks, not repeated: GGGAGUUCUACAGUCCGACGAUC … CAACAGAGGAUUGAGCAUCA
Target sequence (chain): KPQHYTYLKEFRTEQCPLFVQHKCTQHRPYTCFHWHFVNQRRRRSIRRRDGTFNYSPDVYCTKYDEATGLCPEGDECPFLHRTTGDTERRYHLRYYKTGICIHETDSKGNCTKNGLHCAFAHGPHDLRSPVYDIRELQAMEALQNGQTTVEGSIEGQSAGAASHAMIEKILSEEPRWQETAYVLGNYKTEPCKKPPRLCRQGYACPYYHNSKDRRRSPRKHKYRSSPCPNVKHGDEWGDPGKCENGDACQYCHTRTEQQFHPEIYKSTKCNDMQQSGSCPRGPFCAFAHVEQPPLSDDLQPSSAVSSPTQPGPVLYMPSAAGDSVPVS
Oligonucleotide | bound/input enrichment
GCUGAAGUACCACACAUUAGAGAAAGUGUAAUGAGACAAGGGCGCCAUCUGUGUUUCCAGUUAGUAAGUCCAACAGGAACAGCUGUUUCAACUCUUAGUUACAUAAGCAGGACAAAUCAG | 0.463 ratio
UCUCCAAGCAAGAGGUACUGUUUUCGUUGUUGGGCCUUGAGGAAGGAUUGGUAUUCAGAUUGUUCAAAGUUAACCCAUUCUCUCUCCACGUCUGAUAUCACUGCCAUACCUGAAAAGGAA | 0.272 ratio
GUGCGAGUUGAGUGGAUCGCGGCCGUCACCUUUGCUGCUGGCACAGCCGCUCUCGGUUACCUGGCUUACAAGAAGUUCUACGCUAAAGAGAAUCGCACCAAAGCUAUGGUGAAUCUUCAG | 0.067 ratio
AUUGAAGCCAUGCUUGAGGCCCCUUACAAGAAGGAUGAGAACAAGUUGAACAGUGCUAACGGCCAUGAAGAACGUAGCAAAAAGAGAAAAAAAAGCAAGAGCAGAAGUCGUAGUCAUGAG | 0.578 ratio
AAUCUUCAAUGAGUAAACAUAUUCCUCAAUUCUGUGGUGUUCUUGGUCACACAUUUAUGGAGUUUCUGAAGGGCAGUGGAGAUUACUGCCAGGCACAGCACGACCUCUAUGCAGACAAGU | 0.248 ratio
AAGCCUCCAAAGCGGAAGAAGGCAGACACUGAGGGAAAGUCUCCAUCUCAUAGUUCUUCUAACAGACCUUUUACCCCACCUACCAGUACAGGUGGAUCUAAAUCGCCAGGCAGUGCAGGA | 0.169 ratio
GAGAAGUCGACUCAUGAGAAAAUCCUAGAGAAGGCGAUGAAGAAGAAGGGGGGAAGUAAUUGUCUUGAAAUAAAAAAAGAAACAGAAAUUAAAAUUCAGACCCUGACAACGGAUCACAAA | 0.448 ratio
AAAACUUUGCAAGAAGAGAUUGAUGCCUUAGAGUCCAGAGUGGCGUCCAUCCAGCGGGUGUUAGCCGACCUGAAGGUGCAGCUAUACGCGAAAUUUGGCAGCAACAUAAACCUCGAGGCA | 0.136 ratio

Block 3 — method: protein-binding microarray; molecule type: double-stranded DNA, one strand shown; medium: in vitro; concentration: 0.8 µM; setting: whole 60-bp probe, no competitor; direction: higher = stronger binding; shared flanks, not repeated: … GTCTTGATTCGCTTGACGCTGCTG
Target: Centromere-binding protein 1, full length, N-terminal tag (CBF1, Saccharomyces cerevisiae, UniProt P17106, residues 1-351)
Sequence of UniProt P17106 (whole entry, looked up): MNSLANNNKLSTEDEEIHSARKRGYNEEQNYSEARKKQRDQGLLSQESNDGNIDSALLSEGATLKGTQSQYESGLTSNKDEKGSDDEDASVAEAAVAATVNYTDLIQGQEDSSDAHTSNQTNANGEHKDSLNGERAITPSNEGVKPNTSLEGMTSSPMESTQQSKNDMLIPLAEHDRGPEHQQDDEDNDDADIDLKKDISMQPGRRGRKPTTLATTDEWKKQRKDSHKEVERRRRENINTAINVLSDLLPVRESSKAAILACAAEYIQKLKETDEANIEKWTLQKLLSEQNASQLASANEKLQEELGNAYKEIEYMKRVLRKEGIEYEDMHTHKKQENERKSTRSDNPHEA
Oligonucleotide | fluorescence intensity [a.u.]
CTACGCGCACGGCGTGACGTGGATCCCTAATGTTTC | 898
GAAAGACTCATATCCTTCGTGATTAGTTTCTTTTAG | 541
CTAGCGTCATAATTTCACGTGTTATAATAGCCATTC | 3310
GAAGATAATGTTTGTGACTTTTGTTTCAAATGCTAG | 531
CTAATGAATCTAATAAACGTGGCTTACGTAACATTC | 548
CTAGTTTTTAATAATTGTGATCACAATATAGCTTTC | 1020
GAATGGTTATACGCGCACATGTATATAAGGAGATAG | 876
CTAGATGAGAATACTAACACCACGAACTCAAATTTC | 522

Block 4 — read-out: enzyme activity; mode: inhibitor; concentration: 0.5 µM; reference: control
Target: Mitogen-activated protein kinase kinase kinase 11 (MAP3K11, Homo sapiens, UniProt Q16584)
Sequence of UniProt Q16584 (whole entry, looked up): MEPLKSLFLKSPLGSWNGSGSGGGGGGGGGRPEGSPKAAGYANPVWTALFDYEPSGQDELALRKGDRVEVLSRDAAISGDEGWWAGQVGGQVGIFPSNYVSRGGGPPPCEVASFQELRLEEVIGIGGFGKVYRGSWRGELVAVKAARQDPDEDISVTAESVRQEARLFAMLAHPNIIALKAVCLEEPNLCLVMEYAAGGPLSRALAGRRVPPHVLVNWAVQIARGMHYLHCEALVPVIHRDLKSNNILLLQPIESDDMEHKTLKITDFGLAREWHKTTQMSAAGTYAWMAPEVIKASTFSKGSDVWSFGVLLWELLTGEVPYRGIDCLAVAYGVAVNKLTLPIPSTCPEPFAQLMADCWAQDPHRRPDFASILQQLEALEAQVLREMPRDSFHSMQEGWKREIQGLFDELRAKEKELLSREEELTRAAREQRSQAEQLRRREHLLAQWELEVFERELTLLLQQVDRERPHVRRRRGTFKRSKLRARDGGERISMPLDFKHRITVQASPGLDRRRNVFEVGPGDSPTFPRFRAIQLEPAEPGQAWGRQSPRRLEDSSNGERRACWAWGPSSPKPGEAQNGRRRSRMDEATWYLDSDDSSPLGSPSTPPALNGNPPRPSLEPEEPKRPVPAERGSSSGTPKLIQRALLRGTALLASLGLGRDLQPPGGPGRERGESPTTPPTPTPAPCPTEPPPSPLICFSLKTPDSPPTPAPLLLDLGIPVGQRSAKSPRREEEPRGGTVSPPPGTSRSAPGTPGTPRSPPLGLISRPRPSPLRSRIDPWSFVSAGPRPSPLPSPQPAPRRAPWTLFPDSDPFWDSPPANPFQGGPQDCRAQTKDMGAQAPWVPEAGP
Compound | remaining activity [%]
N#CC(C#N)=C(N)/C(C#N)=C/c1ccc(O)cc1 | 94.8
O=c1c2ccccc2[nH]c(=S)n1CCN1CCC(=C(c2ccc(F)cc2)c2ccc(F)cc2)CC1 | 95.2
NCCNc1ncc(C(N)=O)c(Nc2cccc(C(F)(F)F)c2)n1 | 61.8
CO[C@H]1C[C@@H]2CC[C@@H](C)[C@@](O)(O2)C(=O)C(=O)N2CCCC[C@H]2C(=O)O[C@H]([C@H](C)C[C@@H]2CC[C@@H](O)[C@H](OC)C2)CC(=O)[C@H](C)/C=C(\C)[C@@H](O)[C@@H](OC)C(=O)[C@H](C)C[C@H](C)/C=C/C=C/C=C/1C | 98.5
COc1ccc(OC)c2c(=S)c3ccccc3[nH]c12 | 107
O=C(O)c1ccc2c3c1cccc3c(=O)n1c3ccccc3nc21 | 23.7
O=S(=O)(c1cccc2cnccc12)N1CCCNCC1 | 99.7
CC(C)[C@H](CO)Nc1nc(Nc2cc(N)cc(Cl)c2)c2ncn(C(C)C)c2n1 | 17.7
Cn1c2ccccc2c2c3c(c4c5ccccc5n(CCC#N)c4c21)CNC3=O | 2.19
O=C(Nc1cccc(Nc2cc(Nc3cccc(C(F)(F)F)c3)ncn2)c1)C1CC1 | 97.7
O=C1NC(=O)C(c2cn(CCCn3ccnc3)c3ccccc23)=C1Nc1ccccc1 | 13.3
COc1cc2ncnc(Nc3ccc(Oc4ccccc4)cc3)c2cc1OC | 68.5
Cc1nc(-c2ccccc2)c(-c2ccncc2)o1 | 98.7
COc1ccc(C(=O)Nc2sc3c(c2C(N)=O)CCCC3)cc1OC | 96.8

Excerpt of the above (block 3):
Oligonucleotide | fluorescence intensity [a.u.]
GAAGATAATGTTTGTGACTTTTGTTTCAAATGCTAG | 531
CTAATGAATCTAATAAACGTGGCTTACGTAACATTC | 548
CTAGTTTTTAATAATTGTGATCACAATATAGCTTTC | 1020
GAATGGTTATACGCGCACATGTATATAAGGAGATAG | 876
